Measured values from different studies.

AFHYESQ  time to complete degradation (HPLC; peptide, human serum; 37 °C): ≤ 45 min
CN[C@H](CC(C)C)C(=O)N[C@H]1C(=O)N[C@@H](CC(N)=O)C(=O)N[C@H]2C(=O)N[C@H]3C(=O)N[C@H](C(=O)N[C@H](C(=O)O)c4cc(O)cc(O)c4-c4cc3ccc4O)[C@H](O)c3ccc(c(Cl)c3)Oc3cc2cc(c3O[C@@H]2O[C@H](CO)[C@@H](O)[C@H](O)[C@H]2O[C@H]2C[C@](C)(N)[C@H](O)[C@H](C)O2)Oc2ccc(cc2Cl)[C@H]1O  time above MIC (microdialysis; pig, Danish Landrace, subcutaneous adipose tissue; intravenous, 1000 mg over 100 min, 450 min dosing interval, with: 4.0 µg/mL MIC; reference: dosing interval): 93%
CCN(CC)CCNC(=O)c1c(C)[nH]c(/C=C2\C(=O)Nc3ccc(F)cc32)c1C  time of Cmin (human, plasma; oral, 50 mg daily, with: everolimus 30 mg weekly): 1 h
CC(=O)O[C@H]1C(=O)[C@@]2(C)[C@H]([C@H](OC(=O)c3ccccc3)[C@]3(O)C[C@H](OC(=O)[C@H](O)[C@@H](NC(=O)c4ccccc4)c4ccccc4)C(C)=C1C3(C)C)[C@]1(OC(C)=O)CO[C@@H]1C[C@@H]2O  time above threshold concentration (item: compound; patients, plasma; dose not given, above 0.05 µM, with: veliparib; reference: absence of veliparib): no effect
Cn1cc(-c2cnc3[nH]cc(-c4cccc(C#N)c4)c3c2)cn1  time to below LLOQ (plasma; oral, 5 mg/kg): 4.7 h
CC[C@H](C)[C@H](NC(=O)[C@@H]1CCCN1C(=O)CNC(=O)[C@H](Cc1ccccc1)NC(=O)[C@H](CC(N)=O)NC(=O)[C@H](CC(N)=O)NC(=O)[C@H](CO)NC(=O)[C@H](CO)NC(=O)[C@H](Cc1c[nH]cn1)NC(=O)[C@@H](NC(=O)[C@H](CC(C)C)NC(=O)[C@H](Cc1ccccc1)NC(=O)[C@H](CC(N)=O)NC(=O)[C@H](C)NC(=O)[C@H](CC(C)C)NC(=O)[C@H](CCCNC(=N)N)NC(=O)[C@H](CCC(N)=O)NC(=O)[C@@H](NC(=O)[C@H](C)NC(=O)[C@@H]1CSSC[C@H](NC(=O)[C@@H](N)CCCCN)C(=O)N[C@@H](CC(N)=O)C(=O)N[C@@H]([C@@H](C)O)C(=O)N[C@@H](C)C(=O)N[C@@H]([C@@H](C)O)C(=O)N1)[C@@H](C)O)C(C)C)C(=O)N[C@@H](CC(C)C)C(=O)N1CCC[C@H]1C(=O)N1CCC[C@H]1C(=O)N[C@H](C(=O)N[C@@H](CC(N)=O)C(=O)N[C@H](C(=O)NCC(=O)N[C@@H](CO)C(=O)N[C@@H](CC(N)=O)C(=O)N[C@H](C(=O)N[C@@H](Cc1ccc(O)cc1)C(N)=O)[C@@H](C)O)C(C)C)[C@@H](C)O  time without aggregation (transmittance; sodium acetate buffer; concentration not given, pH 4, 37 °C, continuous agitation): > 100 h
C[C@@H](O)[C@H]1C(=O)N2C(C(=O)O)=C(S[C@@H]3CN[C@H](C(=O)N(C)C)C3)[C@H](C)[C@H]12  time above MIC (microdialysis; pig, Danish Landrace, cancellous bone; intravenous, 1000 mg over 10 min, 450 min dosing interval, with: 2.0 µg/mL MIC; reference: dosing interval): 32%
CC(=O)O[C@H]1C(=O)[C@@]2(C)[C@H]([C@H](OC(=O)c3ccccc3)[C@]3(O)C[C@H](OC(=O)[C@H](O)[C@@H](NC(=O)c4ccccc4)c4ccccc4)C(C)=C1C3(C)C)[C@]1(OC(C)=O)CO[C@@H]1C[C@@H]2O  time above 0.5 µM (LC-MS/MS; cancer patients, non-ritonavir cohort, plasma; intravenous, 175 mg/m^2, cycle 1 day 1, with: carboplatin): 23.8 h
O=C(CCCCCCC(=O)C(F)(F)F)Nc1ccccc1  time to complete disappearance (LC-MS; human liver S9 fraction; 0.02 mM, 37 °C, with: NADPH): 15 min
CC(C)(CO)c1cc2cc(NC(=O)C3(c4ccc5c(c4)OC(F)(F)O5)CC3)c(F)cc2n1C[C@@H](O)CO  time to steady state (cystic fibrosis patients, plasma; oral, dose not given, once daily dosing, with: ivacaftor twice daily): ≤ 8 days
